Published values from different studies.
Every numbered part comes from another study and shows a few of its results, in no order. Changes are numbered by the printed parent chain.
Sequence of UniProt Q8N752 (whole entry, looked up): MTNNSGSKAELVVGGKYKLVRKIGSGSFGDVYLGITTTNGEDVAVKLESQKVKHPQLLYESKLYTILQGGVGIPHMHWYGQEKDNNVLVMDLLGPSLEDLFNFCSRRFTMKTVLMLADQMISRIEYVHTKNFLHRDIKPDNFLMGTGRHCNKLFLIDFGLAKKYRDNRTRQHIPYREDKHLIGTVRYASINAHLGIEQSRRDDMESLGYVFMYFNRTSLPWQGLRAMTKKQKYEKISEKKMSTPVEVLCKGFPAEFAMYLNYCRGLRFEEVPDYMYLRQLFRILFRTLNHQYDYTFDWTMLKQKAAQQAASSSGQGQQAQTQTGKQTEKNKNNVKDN

Sample 1
Change: G108W
Target: ABI1, truncated, D143A, DHFR fusion (Arabidopsis thaliana)
Method: DHFR PCA, deep sequencing
Medium: yeast
Notes: methotrexate growth selection, single substitutions
Relative to: wild-type fitted maximum
Direction: higher = stronger binding
Starting sequence: PYL1, truncated, DHFR fusion (Arabidopsis thaliana); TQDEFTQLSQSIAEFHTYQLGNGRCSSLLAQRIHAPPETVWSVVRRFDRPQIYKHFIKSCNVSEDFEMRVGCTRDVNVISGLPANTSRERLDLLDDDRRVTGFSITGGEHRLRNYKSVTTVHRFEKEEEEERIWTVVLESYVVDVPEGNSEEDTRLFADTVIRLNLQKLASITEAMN; partner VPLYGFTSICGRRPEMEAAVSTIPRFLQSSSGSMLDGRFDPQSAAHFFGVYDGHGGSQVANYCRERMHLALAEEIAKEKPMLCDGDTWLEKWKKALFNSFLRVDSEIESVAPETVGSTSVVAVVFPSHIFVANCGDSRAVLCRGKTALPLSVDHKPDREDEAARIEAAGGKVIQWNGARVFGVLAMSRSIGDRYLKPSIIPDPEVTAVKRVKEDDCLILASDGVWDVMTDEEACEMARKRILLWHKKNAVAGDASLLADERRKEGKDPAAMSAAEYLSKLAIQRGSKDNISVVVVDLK
with: (+)-ABA 17 µM — “relative binding score”: -12.4%.
It gave -1.23% for “relative binding score” (with: (+)-ABA 0.11 µM).
It gave -9.68% for “relative binding score” (with: (+)-ABA 0.39 µM).
It gave 42.4% for “relative binding score” (with: (+)-ABA 2500 µM).
The “relative binding score” was -1.91% (with: (+)-ABA 0 µM).
It gave -7.09% for “relative binding score” (with: (+)-ABA 0.0091 µM).

Sample 2
Target: PABPC1L2, full length, GST fusion (mouse, UniProt A0ABA7IW68)
Method: RNAcompete
Form: RNA
Medium: in vitro
Tested at: 20 nM
Notes: 7-mer, probes averaged, single round
Relative to: mean of 7-mers
Direction: higher = stronger binding
Residues (chain): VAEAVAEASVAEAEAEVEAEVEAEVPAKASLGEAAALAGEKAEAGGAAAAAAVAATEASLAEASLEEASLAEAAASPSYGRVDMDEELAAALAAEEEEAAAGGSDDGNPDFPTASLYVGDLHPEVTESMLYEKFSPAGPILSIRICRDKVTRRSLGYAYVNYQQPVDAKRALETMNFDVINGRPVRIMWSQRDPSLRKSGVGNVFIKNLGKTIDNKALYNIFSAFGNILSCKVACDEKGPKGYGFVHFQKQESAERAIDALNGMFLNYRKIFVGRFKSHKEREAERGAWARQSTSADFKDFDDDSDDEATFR
`AACUGUG` gave a 7-mer Z-score of 0.0859.
`GCAAAAA` gave a 7-mer Z-score of 15.9.
With `ACAACUA` the 7-mer Z-score was 0.18.
With `GUUCGGU` the 7-mer Z-score was -0.345.
With `UAACGGC` the 7-mer Z-score was -0.0808.
The 7-mer Z-score of `ACCUCCG` is reported as -0.411.
The 7-mer Z-score of `UAUGGGG` is reported as 0.187.
With `UGAAUUC` the 7-mer Z-score was -0.309.

Other studies, line by line
`Nc1cnc(N2CCc3cc(S(=O)(=O)Nc4c(F)cc(Cl)cc4F)cc(N4CCCC4=O)c32)nc1` gave a remaining binding of 100% (CSNK1A1L (Homo sapiens, UniProt Q8N752); cell-free assay, competition with immobilised ligand; 1 µM).
`CCOC(=O)[C@@H]1CSCC(=O)N[C@H](CC)C(=O)N(C)[C@@H](C)C(=O)N[C@H](CC(C)C)C(=O)N2CCC[C@H]2C(=O)N(CC)CC(=O)N[C@@H](CC(C)C)C(=O)N(C)[C@H](C)C(=O)N[C@@H](CC(C)C)C(=O)N1C` gave a logD of -0.158 (hydrocarbon/water).
For `COc1ccc2cc(OCC3(C(=O)O)CN(C(=O)c4ccc(F)cc4)C3)ccc2c1`, the remaining binding was 100% (EGFR (Homo sapiens, UniProt P00533, L861Q); cell-free assay, competition with immobilised ligand; 1 µM).

Some of these lines once more (sample 1):
with: (+)-ABA 17 µM — “relative binding score”: -12.4%.
It gave -1.23% for “relative binding score” (with: (+)-ABA 0.11 µM).
It gave -9.68% for “relative binding score” (with: (+)-ABA 0.39 µM).
